Measurements of several laboratories.
“And” joins repeats or separate records; there may be more than shown. ± gives the spread as reported.
Protein-S-isoprenylcysteine O-methyltransferase: Protein-S-isoprenylcysteine O-methyltransferase (Homo sapiens, UniProt O60725)
Coelenterazine h 2-monooxygenase: Coelenterazine h 2-monooxygenase (Renilla reniformis, UniProt P27652)
PTGS2: Prostaglandin G/H synthase 2 (PTGS2, Homo sapiens, UniProt P35354)
USP5: Ubiquitin carboxyl-terminal hydrolase 5 (USP5, Homo sapiens, UniProt P45974)
AR: Androgen receptor (AR, Homo sapiens, UniProt P10275)

The inhibition of `O=C1CO[C@H](CNC(=O)C2(c3ccc(Cl)cc3)CC2)CN1C1Cc2ccccc2C1` is reported as -4% (CCR10 (Homo sapiens, UniProt P46092); β-arrestin recruitment, antagonist; 1 µM).
For `COc1cccc(-c2cc(F)c(NC(=O)Nc3sc(C)nc3C(=O)O)c(F)c2)c1`, the inhibition was 24.7% and 21.2% and 23% (DHODH (Homo sapiens, UniProt Q02127); enzyme activity, DCIP colorimetric; 50.00 µM).
`O=C(CCCCCCc1ccccc1)c1ncc(-c2ccc(CBr)cn2)o1` has an inhibition of ~80% (recombinant FAAH (rat); enzyme activity; 80 nM, 3 h, 22 °C, before dialysis).
With `CCCCCCCCN(CCC(=O)Nc1ccccc1)C(=O)c1ccc[nH]1` the inhibition was 75% (Protein-S-isoprenylcysteine O-methyltransferase; enzyme activity; Sf9 membranes; 50 µM, with: [3H]S-adenosylmethionine, biotin-farnesyl-L-cysteine).
With `Cl.Oc1ccc(Nc2nc(NCC3CCCO3)c3ccccc3n2)cc1` (stereo not drawn) the inhibition was 105% and 112% (Coelenterazine h 2-monooxygenase; luciferase activity, inhibitor, luminescence counter-screen; concentration not given, test 2).
For `Cc1ccc(-c2nn(-c3ccc(S(C)(=O)=O)cc3)cc2C=NN=c2[nH]c(-c3ccc([N+](=O)[O-])cc3)cs2)cc1`, the inhibition was 22.8% (PTGS2; enzyme activity; 0.1 µM).
`CCCCCCCCN(CCC(=O)Nc1ccccc1)C(=O)c1cnco1` has an inhibition of 56% (Protein-S-isoprenylcysteine O-methyltransferase; enzyme activity; Sf9 membranes; 50 µM, with: [3H]S-adenosylmethionine, biotin-farnesyl-L-cysteine).
With `C[Si](C)(C)C[C@H](CN)CC(=O)O` the inhibition was 2% (NMDA receptor, rat; binding, radioligand binding; 250 µM, with: [3H]TCP).
For `CC1(C)CC(=O)C(=NNc2ccc3c(c2)OCO3)C(=O)C1`, the inhibition was 6% (USP5; enzyme activity, inhibitor; 17 µM).
With `CC(=O)C12NC(C)(C)CC1(C)C(=O)C1=C2c2c(c3c4n2C(C)(C)CC2=C4C4(CC(C)(C)NC(C)(C4)C2=O)CC3(C)C)C(=O)C(C)(C)N1` (single isomer, unassigned; (-)) the inhibition was 28.06 ± 0.11% (KCNQ4 (Homo sapiens, UniProt P56696); ion current, antagonist, whole-cell patch clamp; HEK293T; 10 µM).
With `O=C(Nc1ccc([C@H]2[C@@H](F)[C@@H](F)C[C@@H](F)[C@H]2F)cc1)C1(N2CCOCC2)CC1` the hepatic clearance was 71 mL/min/kg (liver microsome stability; mouse liver microsomes; 1 µM).
With `Cc1ccc2c(c1)sc(-c1ccc(N(C)C)cc1)[n+]2C` the inhibition was 86.5% and 88.2% (Coelenterazine h 2-monooxygenase; luciferase activity, inhibitor, luminescence counter-screen; concentration not given, test 3 new dilution).
`NNC(c1nnnn1Cc1ccccc1)C1CCCCC1` (stereo not drawn) gave an inhibition of 14.1% (Endothiapepsin (EAPA, Cryphonectria parasitica, UniProt P11838); enzyme activity, inhibitor; 200 µM).
With `Cc1ccc(C=C2SC(=O)NC2=S)o1` the inhibition was 83% (USP5; enzyme activity, inhibitor; 17 µM).
The inhibition of `CC(C)Oc1ccc(CNCCC2(C(C)C)CCOC(C)(C)C2)cc1` (stereo not drawn) is reported as 65.6% and 49% (Coelenterazine h 2-monooxygenase; luciferase activity, inhibitor, luminescence counter-screen; concentration not given, test 3 new dilution).
For `NC(=O)C[C@H]1CCc2sc3ncnc(O[C@H]4CC[C@H](N5CCOCC5)CC4)c3c21`, the inhibition was 1% (PRKACG (Homo sapiens, UniProt P22612); enzyme activity, inhibitor; 10 µM).
With `COCC(=O)N1CCc2cc(-c3csc(NC(=O)c4cc(OC)cc(OC)c4)n3)ccc21` the inhibition was -6% (CYSLTR1 (Homo sapiens, UniProt Q9Y271); ligand displacement, radioligand; 10 µM).
For `CC(=O)n1cc([C@H]2C=C(C(=O)N3CCN(Cc4ccc5c(c4)OCO5)CC3)O[C@@H](OCc3ccc(CO)cc3)C2)c2ccccc21`, the inhibition was 59% and 55.5% (Coelenterazine h 2-monooxygenase; luciferase activity, inhibitor, luminescence counter-screen; concentration not given, test 1).
For `O=C(O)CCCN1C(=O)C(=C2SC(=S)N(CCCC(=O)O)C2=O)SC1=S`, the inhibition was 0% (USP5; enzyme activity, inhibitor; 17 µM).
`O=C(CN1CCN(C(=O)c2ccc(F)cc2)CC1)Nc1cccc(C(=O)Nc2ccc3[nH]ncc3c2)c1` has an inhibition of 24.7% (NTRK1 (Homo sapiens, UniProt P04629); enzyme activity, inhibitor, FRET; 1 µM).
For `CC(C)Cc1ccc(-c2nn(-c3ccc(S(C)(=O)=O)cc3)cc2C=NN=c2[nH]c(-c3ccc(Br)cc3)cs2)cc1`, the inhibition was 93.4% (PTGS2; enzyme activity; 100 µM).
`Cn1ccc2cc(-n3c(=O)[nH]c4sc5c(c4c3=O)CCCC5)ccc21` has an inhibition of -4% (AR; radioligand binding; 10 µM, with: testosterone).
For `O=C1c2sc(-c3ccc(N4CCC(F)C4)nc3F)nc2CCN1c1cccnc1` (stereo not drawn), the inhibition was -3% (L-type Ca2+ channel, dihydropyridine site; radioligand binding, BioPrint binding panel; 1 µM, with: antagonist radioligand).
With `Br.CCCCCCCCCn1c2c(c(=N)c3c1CCC3)CCCC2` the inhibition was 101% and 83.1% (Coelenterazine h 2-monooxygenase; luciferase activity, inhibitor, luminescence counter-screen; concentration not given, test 2).
`CCn1c2ccccc2c2cc(CNCCCn3ccnc3)ccc21` gave an inhibition of 89.3% (DRD3 (Homo sapiens, UniProt P35462); enzyme activity, inhibitor; 10 µM).
With `CNC(=O)c1ccc(C2CCCCC2)cc1` the hepatic clearance was 77 mL/min/kg (hepatocyte stability; cryopreserved mouse hepatocytes; 1 µM).
`C/C=C(/C)C(=O)O[C@@H]1C=C(C)CC[C@]2(O)[C@@H](C(C)C)CC(=O)[C@]12C` gave an inhibition of 0% (PTGS2; enzyme activity, inhibitor; 31.25 µg/mL).
For `C/C=C/C(=O)Nc1ccc2nc(NCCCCCN(C)C)nc(NCCCCCCN(C)C)c2c1`, the inhibition was 6% (DNA (cytosine-5)-methyltransferase 3A, with DNMT3L (DNMT3A, Homo sapiens, UniProt Q9Y6K1); enzyme activity; 50 µM).
With `COc1ccccc1Nc1nc(NCC2CCCO2)c2ccccc2n1` (stereo not drawn) the inhibition was 77.7% and 77.8% (Coelenterazine h 2-monooxygenase; luciferase activity, inhibitor, luminescence counter-screen; concentration not given, test 3 new dilution).
With `CC=C(C)C(=O)OC1CC2C(C=C(C)C3C(OC(C)=O)CC(=O)C13C)OC(=O)C2C` (stereo not drawn) the inhibition was 0% (PTGS2; enzyme activity, inhibitor; 31.25 µg/mL).
With `CCn1cc(C(=O)O)c(=O)c2c(N)c(F)c(NC3CCCCC3)cc21` the inhibition was -20.5% (NEK8 (Homo sapiens, UniProt Q86SG6); kinase activity; 0.1 µM, with: ATP at Km).
`CS(=O)(=O)c1ccc(-n2cc(C=NN=c3[nH]c(-c4ccc(Br)cc4)cs3)c(-c3ccc(Br)cc3)n2)cc1` has an inhibition of 17.7% (PTGS2; enzyme activity; 0.01 µM).
The inhibition of `CN(C)C=CC=C1CCc2ccccc2C1=O` is reported as 84% (USP5; enzyme activity, inhibitor; 17 µM).
For `O=C(Oc1cccc(CSc2ncccn2)c1)c1ccc([N+](=O)[O-])cc1`, the inhibition was 59.1 ± 5.3% (Apelin receptor (APLNR, Homo sapiens, UniProt P35414); β-arrestin recruitment, antagonist, PRESTO-Tango; concentration not given).
`O=C1CCCC2=C1C1(O)C(=O)c3ccccc3C1(O)O2` (stereo not drawn) gave an inhibition of 97% (USP5; enzyme activity, inhibitor; 17 µM).
For `O=C1c2sc(-c3ccc(N4CCC(CO)CC4)nc3F)nc2CCN1c1cccnc1`, the inhibition was 9% (AR; ligand displacement, radioligand; 1 µM).
`Cc1oc2c(c1C(=O)NCN1CCOCC1)C(=O)c1ccccc1C2=O` has an inhibition of 14% (USP5; enzyme activity, inhibitor; 17 µM).
For `CS(=O)(=O)c1ccc(-n2cc(C=NN=c3[nH]c(-c4ccc(Br)cc4)cs3)c(-c3ccc([N+](=O)[O-])cc3)n2)cc1` (mixture of isomers), the inhibition was 86.5% (PTGS2; enzyme activity; 100 µM).
`CO[C@@H]1OC[C@@H](O)[C@H](O)[C@H]1O` has an inhibition of 22.7% (PTGS2; enzyme activity, inhibitor; 0.98 µg/mL).
For `CCCCCCCCN(CCC(=O)Nc1ccccc1)C(=O)C1CCOC1` (stereo not drawn), the inhibition was 41% (Protein-S-isoprenylcysteine O-methyltransferase; enzyme activity; Sf9 membranes; 50 µM, with: [3H]S-adenosylmethionine, biotin-farnesyl-L-cysteine).
For `CC(=O)N1CCN(CCN2C(C)=CC(=C(C#N)C#N)C=C2C)CC1`, the inhibition was 0% (USP5; enzyme activity, inhibitor; 17 µM).
`CS(=O)(=O)c1ccc(-n2cc(C=NN=c3[nH]c(-c4ccc([N+](=O)[O-])cc4)cs3)c(-c3ccc(Br)cc3)n2)cc1` gave an inhibition of 73.7% (PTGS2; enzyme activity; 10 µM).
`CN(C)C/C=C/C(=O)Nc1ccc2nc(NCCCCCN(C)C)nc(NCCCCCCN(C)C)c2c1` has an inhibition of 5% (SUV39H2 (Homo sapiens, UniProt Q9H5I1); enzyme activity, inhibitor, radiometric; 10 µM).
With `COc1ccc(C2CC(Nc3ccc(-c4ccc(NC5=NOC(c6ccc(OC)cc6)C5)cc4)cc3)=NO2)cc1` (stereo not drawn) the inhibition was 79% (cyclooxygenase, rabbit; distal colon mucosa microsomes; 10 µM).
With `C[Si]1(C[C@H](CN)CC(=O)O)CCCC1` the inhibition was -5% (P2Y receptor, rat; binding, radioligand binding; 70 µM, with: labelled ATP analogue).
For `CCCCCCCCN(CCC(=O)Nc1ccccc1)C(=O)c1ccccc1C#N`, the inhibition was 47% (Protein-S-isoprenylcysteine O-methyltransferase; enzyme activity; Sf9 membranes; 50 µM, with: [3H]S-adenosylmethionine, biotin-farnesyl-L-cysteine).
The inhibition of `Cc1cc(N)n(N)c(=O)c1` is reported as 26% (USP5; enzyme activity, inhibitor; 17 µM).
The inhibition of `CS(=O)(=O)c1ccc(-n2cc(C=NN=c3[nH]c(-c4ccc([N+](=O)[O-])cc4)cs3)c(-c3ccc([N+](=O)[O-])cc3)n2)cc1` is reported as 75.6% (PTGS2; enzyme activity; 10 µM).

Some of these lines once more:
For `O=C(O)CCCN1C(=O)C(=C2SC(=S)N(CCCC(=O)O)C2=O)SC1=S`, the inhibition was 0% (USP5; enzyme activity, inhibitor; 17 µM).
`C/C=C(/C)C(=O)O[C@@H]1C=C(C)CC[C@]2(O)[C@@H](C(C)C)CC(=O)[C@]12C` gave an inhibition of 0% (PTGS2; enzyme activity, inhibitor; 31.25 µg/mL).
With `COc1ccc(C2CC(Nc3ccc(-c4ccc(NC5=NOC(c6ccc(OC)cc6)C5)cc4)cc3)=NO2)cc1` (stereo not drawn) the inhibition was 79% (cyclooxygenase, rabbit; distal colon mucosa microsomes; 10 µM).
With `CC=C(C)C(=O)OC1CC2C(C=C(C)C3C(OC(C)=O)CC(=O)C13C)OC(=O)C2C` (stereo not drawn) the inhibition was 0% (PTGS2; enzyme activity, inhibitor; 31.25 µg/mL).
`CCCCCCCCN(CCC(=O)Nc1ccccc1)C(=O)c1cnco1` has an inhibition of 56% (Protein-S-isoprenylcysteine O-methyltransferase; enzyme activity; Sf9 membranes; 50 µM, with: [3H]S-adenosylmethionine, biotin-farnesyl-L-cysteine).
`NNC(c1nnnn1Cc1ccccc1)C1CCCCC1` (stereo not drawn) gave an inhibition of 14.1% (Endothiapepsin (EAPA, Cryphonectria parasitica, UniProt P11838); enzyme activity, inhibitor; 200 µM).
